Literature values, collected from citations in different studies.
Protocols differ between the studies behind these lines. Several values in a cell are separate wells, animals, samples, runs or records. ± marks the error that the study gave.
CDK1: Cyclin-dependent kinase 1 (CDK1, Homo sapiens, UniProt P06493)

The chains behind the UniProt entries cited, without tags or fusion partners. Residues count along the entry.
UniProt P06493, whole entry: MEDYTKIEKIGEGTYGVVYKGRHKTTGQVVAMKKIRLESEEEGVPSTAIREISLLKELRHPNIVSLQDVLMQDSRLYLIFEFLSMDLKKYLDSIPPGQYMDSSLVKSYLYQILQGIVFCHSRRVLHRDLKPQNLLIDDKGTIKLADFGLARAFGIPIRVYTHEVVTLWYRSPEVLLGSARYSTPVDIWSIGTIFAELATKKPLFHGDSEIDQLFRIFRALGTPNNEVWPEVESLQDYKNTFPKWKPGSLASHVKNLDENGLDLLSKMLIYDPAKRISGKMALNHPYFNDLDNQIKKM
UniProt Q9UBN7, whole entry: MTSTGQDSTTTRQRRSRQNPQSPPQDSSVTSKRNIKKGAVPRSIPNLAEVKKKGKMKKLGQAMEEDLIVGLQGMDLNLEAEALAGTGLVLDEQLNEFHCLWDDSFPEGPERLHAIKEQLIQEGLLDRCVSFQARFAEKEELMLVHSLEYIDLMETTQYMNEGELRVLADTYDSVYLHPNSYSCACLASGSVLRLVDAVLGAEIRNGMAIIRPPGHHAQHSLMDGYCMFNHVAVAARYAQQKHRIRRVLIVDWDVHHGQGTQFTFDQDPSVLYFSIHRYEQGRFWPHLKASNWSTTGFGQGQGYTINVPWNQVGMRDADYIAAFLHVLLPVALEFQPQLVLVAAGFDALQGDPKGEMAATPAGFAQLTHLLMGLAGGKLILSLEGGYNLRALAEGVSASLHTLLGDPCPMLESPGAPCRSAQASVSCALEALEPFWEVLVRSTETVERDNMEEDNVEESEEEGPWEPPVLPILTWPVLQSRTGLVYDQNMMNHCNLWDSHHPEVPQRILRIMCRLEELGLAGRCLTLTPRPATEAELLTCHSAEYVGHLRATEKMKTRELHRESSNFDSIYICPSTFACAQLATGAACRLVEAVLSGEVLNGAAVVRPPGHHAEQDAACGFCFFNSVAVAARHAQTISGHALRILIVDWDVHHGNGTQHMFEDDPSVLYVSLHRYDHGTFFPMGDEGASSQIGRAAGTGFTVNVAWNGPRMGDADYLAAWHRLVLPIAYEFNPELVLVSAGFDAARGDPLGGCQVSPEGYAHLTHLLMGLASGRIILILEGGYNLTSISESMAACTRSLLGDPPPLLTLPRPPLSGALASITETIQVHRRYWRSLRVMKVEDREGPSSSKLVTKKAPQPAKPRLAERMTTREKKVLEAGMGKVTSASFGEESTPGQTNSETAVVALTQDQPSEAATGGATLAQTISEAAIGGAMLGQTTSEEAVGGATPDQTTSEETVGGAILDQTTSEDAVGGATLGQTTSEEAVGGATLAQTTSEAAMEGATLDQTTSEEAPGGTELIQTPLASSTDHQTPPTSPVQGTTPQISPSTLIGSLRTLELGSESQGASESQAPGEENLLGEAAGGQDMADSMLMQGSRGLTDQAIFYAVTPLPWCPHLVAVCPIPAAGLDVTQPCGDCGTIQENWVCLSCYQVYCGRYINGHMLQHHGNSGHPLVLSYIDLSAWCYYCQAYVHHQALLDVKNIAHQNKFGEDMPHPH
UniProt Q05397, whole entry, looked up: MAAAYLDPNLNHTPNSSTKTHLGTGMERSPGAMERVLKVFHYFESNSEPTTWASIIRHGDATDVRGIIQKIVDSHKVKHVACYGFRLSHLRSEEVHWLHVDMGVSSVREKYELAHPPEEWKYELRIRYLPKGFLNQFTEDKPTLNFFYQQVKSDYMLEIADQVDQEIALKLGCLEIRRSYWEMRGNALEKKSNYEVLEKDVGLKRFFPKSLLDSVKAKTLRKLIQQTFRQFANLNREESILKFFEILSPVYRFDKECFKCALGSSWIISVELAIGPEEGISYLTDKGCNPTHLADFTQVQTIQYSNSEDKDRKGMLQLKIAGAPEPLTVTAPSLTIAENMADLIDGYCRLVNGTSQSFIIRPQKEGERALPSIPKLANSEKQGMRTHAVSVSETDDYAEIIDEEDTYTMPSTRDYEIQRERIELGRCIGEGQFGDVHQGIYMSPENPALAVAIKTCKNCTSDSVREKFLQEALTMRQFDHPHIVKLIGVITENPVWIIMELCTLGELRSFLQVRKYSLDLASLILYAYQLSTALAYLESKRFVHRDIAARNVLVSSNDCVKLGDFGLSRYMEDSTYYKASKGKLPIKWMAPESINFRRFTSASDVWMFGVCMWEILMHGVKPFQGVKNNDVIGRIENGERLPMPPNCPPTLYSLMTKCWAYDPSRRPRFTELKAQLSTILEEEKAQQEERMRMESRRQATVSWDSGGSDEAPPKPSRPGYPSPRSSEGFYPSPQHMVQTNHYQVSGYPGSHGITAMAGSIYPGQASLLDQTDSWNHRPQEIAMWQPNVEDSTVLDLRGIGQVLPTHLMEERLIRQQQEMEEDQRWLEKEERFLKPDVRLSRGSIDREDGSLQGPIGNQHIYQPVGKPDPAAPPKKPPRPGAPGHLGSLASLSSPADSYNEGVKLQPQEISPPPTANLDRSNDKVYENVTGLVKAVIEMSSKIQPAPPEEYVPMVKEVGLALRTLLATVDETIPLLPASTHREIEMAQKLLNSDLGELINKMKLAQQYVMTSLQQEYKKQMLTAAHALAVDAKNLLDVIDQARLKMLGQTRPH
UniProt P56450, whole entry: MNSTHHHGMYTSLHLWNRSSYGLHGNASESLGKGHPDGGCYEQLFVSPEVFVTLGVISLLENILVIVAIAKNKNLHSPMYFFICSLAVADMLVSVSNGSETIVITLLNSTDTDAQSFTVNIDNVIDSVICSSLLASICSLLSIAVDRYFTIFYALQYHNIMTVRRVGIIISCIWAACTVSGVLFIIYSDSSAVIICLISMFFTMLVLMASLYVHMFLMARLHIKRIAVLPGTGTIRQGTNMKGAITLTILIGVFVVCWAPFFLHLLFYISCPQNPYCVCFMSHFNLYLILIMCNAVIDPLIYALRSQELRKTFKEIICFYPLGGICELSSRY
UniProt O15392, whole entry: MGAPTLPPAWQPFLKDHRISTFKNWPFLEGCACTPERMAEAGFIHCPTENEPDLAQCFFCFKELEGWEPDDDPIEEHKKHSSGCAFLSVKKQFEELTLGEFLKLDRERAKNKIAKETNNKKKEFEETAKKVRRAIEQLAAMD
UniProt Q92831, 723-827 limits assumed: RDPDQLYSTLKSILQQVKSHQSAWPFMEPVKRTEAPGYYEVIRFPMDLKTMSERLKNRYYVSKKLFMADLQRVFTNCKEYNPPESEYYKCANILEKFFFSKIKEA
UniProt P25090, whole entry: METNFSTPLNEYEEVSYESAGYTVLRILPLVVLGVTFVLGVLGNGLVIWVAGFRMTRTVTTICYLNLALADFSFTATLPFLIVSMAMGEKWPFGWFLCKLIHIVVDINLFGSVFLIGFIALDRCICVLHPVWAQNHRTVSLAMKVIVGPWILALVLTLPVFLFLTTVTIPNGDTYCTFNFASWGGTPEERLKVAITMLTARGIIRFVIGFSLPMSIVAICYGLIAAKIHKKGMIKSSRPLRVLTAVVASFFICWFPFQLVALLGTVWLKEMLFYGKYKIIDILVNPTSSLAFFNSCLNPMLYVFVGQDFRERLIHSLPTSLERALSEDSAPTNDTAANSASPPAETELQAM
UniProt Q00959, 23-1464 limits assumed: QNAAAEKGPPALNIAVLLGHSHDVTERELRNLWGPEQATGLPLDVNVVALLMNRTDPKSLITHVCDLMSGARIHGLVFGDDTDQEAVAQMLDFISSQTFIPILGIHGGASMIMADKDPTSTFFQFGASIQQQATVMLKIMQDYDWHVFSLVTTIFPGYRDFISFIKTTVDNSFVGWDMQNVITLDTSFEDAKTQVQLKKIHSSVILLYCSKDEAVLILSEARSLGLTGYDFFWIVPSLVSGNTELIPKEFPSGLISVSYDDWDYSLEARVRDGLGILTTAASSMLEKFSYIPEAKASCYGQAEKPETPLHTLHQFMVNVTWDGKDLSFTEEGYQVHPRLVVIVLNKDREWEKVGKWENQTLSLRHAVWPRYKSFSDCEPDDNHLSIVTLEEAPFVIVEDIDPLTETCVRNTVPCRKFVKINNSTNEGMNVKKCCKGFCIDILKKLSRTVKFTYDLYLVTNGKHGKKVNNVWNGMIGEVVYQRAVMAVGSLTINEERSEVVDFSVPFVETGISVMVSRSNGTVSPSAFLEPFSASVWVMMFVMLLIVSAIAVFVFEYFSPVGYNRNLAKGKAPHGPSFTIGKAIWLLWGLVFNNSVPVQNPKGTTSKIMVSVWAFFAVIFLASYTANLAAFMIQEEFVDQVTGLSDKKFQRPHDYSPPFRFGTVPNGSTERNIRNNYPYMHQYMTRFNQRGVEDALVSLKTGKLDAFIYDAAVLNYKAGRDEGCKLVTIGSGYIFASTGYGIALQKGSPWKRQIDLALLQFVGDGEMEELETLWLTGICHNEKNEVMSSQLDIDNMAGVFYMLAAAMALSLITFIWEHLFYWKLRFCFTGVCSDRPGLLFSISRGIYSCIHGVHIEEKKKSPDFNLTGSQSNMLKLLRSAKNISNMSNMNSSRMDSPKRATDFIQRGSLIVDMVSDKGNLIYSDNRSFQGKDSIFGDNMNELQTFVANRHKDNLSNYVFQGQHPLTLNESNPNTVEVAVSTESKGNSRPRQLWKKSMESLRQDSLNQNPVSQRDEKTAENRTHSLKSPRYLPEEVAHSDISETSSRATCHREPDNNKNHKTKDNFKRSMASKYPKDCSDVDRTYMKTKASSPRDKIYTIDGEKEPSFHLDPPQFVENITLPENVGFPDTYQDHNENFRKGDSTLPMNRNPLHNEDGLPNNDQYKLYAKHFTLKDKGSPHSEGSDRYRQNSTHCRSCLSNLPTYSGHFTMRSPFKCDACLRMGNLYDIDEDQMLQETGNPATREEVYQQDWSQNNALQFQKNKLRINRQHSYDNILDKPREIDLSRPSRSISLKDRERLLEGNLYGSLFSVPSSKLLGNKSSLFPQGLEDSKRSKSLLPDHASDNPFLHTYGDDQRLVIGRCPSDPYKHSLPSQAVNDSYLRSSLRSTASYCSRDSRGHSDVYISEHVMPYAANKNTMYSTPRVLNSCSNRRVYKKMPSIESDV
UniProt Q9UQL6, whole entry: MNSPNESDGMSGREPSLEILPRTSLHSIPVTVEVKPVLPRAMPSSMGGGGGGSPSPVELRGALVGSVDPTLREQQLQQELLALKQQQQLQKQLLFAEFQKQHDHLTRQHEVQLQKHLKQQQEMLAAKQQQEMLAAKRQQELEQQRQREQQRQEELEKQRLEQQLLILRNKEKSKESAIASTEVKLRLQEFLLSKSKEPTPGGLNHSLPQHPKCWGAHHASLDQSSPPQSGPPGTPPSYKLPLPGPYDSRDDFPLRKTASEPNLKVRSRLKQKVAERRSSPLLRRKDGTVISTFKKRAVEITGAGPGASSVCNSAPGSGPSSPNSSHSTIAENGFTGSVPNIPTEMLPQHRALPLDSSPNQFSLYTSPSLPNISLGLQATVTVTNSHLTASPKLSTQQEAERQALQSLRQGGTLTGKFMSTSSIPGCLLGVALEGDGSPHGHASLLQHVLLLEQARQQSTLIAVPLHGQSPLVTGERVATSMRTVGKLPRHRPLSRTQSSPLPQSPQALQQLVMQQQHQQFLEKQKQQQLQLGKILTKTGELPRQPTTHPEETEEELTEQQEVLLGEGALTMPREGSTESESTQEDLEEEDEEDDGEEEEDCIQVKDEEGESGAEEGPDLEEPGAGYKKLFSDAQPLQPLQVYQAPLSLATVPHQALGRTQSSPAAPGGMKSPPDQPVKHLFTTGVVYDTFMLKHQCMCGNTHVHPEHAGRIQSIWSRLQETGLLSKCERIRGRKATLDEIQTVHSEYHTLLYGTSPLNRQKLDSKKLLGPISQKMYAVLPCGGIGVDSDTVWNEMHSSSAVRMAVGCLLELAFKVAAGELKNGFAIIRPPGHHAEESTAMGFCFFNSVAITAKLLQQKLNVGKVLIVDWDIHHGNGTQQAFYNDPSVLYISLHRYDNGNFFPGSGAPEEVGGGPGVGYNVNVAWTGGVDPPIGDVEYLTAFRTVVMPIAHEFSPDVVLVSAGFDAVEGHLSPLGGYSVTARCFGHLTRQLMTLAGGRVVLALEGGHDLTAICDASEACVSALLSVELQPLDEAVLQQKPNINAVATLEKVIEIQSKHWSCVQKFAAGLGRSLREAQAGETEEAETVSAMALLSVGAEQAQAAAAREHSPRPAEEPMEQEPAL
UniProt P10747, whole entry, looked up: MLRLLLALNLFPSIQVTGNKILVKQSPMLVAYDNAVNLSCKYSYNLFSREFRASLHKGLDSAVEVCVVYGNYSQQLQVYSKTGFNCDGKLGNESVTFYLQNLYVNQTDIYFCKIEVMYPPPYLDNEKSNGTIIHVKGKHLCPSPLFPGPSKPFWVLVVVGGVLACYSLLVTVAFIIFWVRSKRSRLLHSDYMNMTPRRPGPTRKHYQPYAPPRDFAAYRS

| Structure (SMILES) | tested on | test | test system | conditions | how to read | measurement | result |
| --- | --- | --- | --- | --- | --- | --- | --- |
| CC(=O)NCCCC[C@H](NC(=O)CNC(=O)[C@H](CC(C)C)NC(C)=O)C(=O)Nc1ccc2c(C)cc(=O)oc2c1 | HDAC6 (Homo sapiens, UniProt Q9UBN7) | substrate | – | – | – | Km | 16 µM |
| COc1cc(O)cc2ccc3cc(O)ccc3c12 | CDK1 | kinase activity, inhibitor | – | – | – | IC50 | 4.1 µM |
| O=C(O)c1ccc(-c2cn[nH]c2)nc1 | PTK2 (Homo sapiens, UniProt Q05397) | surface plasmon resonance | – | – | – | Kd | 1300 µM |
| CS(=O)(=O)N(CCN)c1ccc(Nc2ncc3cnn(C4CCCCCC4)c3n2)cn1 | CDK1 | kinase activity, inhibitor | – | – | – | IC50 | 0.003 µM |
| COc1cc2[nH]c3c(-c4c(C5CC5)n[nH]c4C)nccc3c2cc1-c1c(C)noc1C | Bromodomain-containing protein 4, BD2 (BRD4, Homo sapiens, UniProt O60885) | binding | – | – | – | Kd | 0.67 µM |
| C[C@@H]1NC(=O)[C@H](CC(N)=O)NC(=O)[C@H](Cc2c[nH]c3ccccc23)NC(=O)[C@H](CCCNC(=N)N)NC(=O)[C@@H](Cc2ccccc2)NC(=O)[C@H](Cc2c[nH]cn2)NC(=O)[C@@H](NC(=O)[C@@H](N)Cc2ccc(O)cc2)CSSC[C@@H](C(=O)N[C@@H](Cc2ccc(O)cc2)C(N)=O)NC(=O)[C@H](Cc2ccccc2)NC1=O | Melanocortin receptor 4 (Mus musculus, UniProt P56450) | cAMP, agonist | – | – | – | EC50 | 0.0003 µM |
| C[C@H](N)C(=O)N[C@@H](CCCNC(=N)N)C(=O)N[C@H](C(=O)N[C@@H](CCCCN)C(=O)N[C@@H](CCC(N)=O)C(=O)N[C@H](C(=O)N[C@@H](C)C(=O)N[C@@H](CCCNC(=N)N)C(=O)N[C@@H](CCCCN)C(=O)N[C@@H](CO)C(=O)N[C@H](C(=O)NCC(=O)O)[C@@H](C)O)[C@@H](C)O)[C@@H](C)O | BIRC5 (Homo sapiens, UniProt O15392) | ITC | – | pH 7.2, 25 °C | – | Kd | 9.37 ± 0.31 µM |
| Cc1cc(C)cc(Nc2nccc(-c3c(-c4ccc(F)cc4)ncn3C3CCNCC3)n2)c1 | KAT2B (Homo sapiens, UniProt Q92831) | – | – | concentration not given | – | inhibition | > 35% |
| CCC[C@@H]1CN[C@H](C(=O)O)[C@H]1c1cccc(C(=O)O)c1 | Glutamate receptor ionotropic, kainate 1 (Rattus norvegicus, UniProt P22756) | binding, radioligand displacement | – | cloned homomeric receptor | – | Ki | 0.62 µM |
| CCCC[C@@H](C(=O)Nc1ccc(Br)cc1)n1nc(C)cc(Cc2cccc(OC)c2)c1=O (racemic) | FPR2 (Homo sapiens, UniProt P25090) | agonist | HL-60 expressing FPR2 | – | – | EC50 | 7 µM |
| O=C(O)c1cc([C@H]2CCN[C@@H]2C(=O)O)ccc1Cl | Glutamate receptor ionotropic, NMDA 2A, with GluN1 (Grin2a, Rattus norvegicus, UniProt Q00959) | ion current, antagonist, two-electrode voltage clamp | – | GluN1/GluN2A | – | IC50 | 4.7 µM |
| O=S(=O)(NC1CCN(c2ncnc3c2nc(-c2ccccc2Cl)n3-c2ccc(Cl)cc2)CC1)c1ccccc1 | MDCK-MDR1 | – | – | apical to basal transported | – | permeability | 1% |
| O=C(O)c1cc(O)cc([C@H]2CCN[C@@H]2C(=O)O)c1 | NMDA receptor (rat) | binding, radioligand binding | rat synaptosomes | with: [3H]CGP39653 | – | Ki | 4.1 µM |
| CC(=O)N[C@@H](CC(C)C)C(=O)NCC(=O)N[C@@H](CCCCNC(=O)C(F)(F)F)C(=O)Nc1ccc2c(C)cc(=O)oc2c1 | HDAC5 (Homo sapiens, UniProt Q9UQL6) | substrate | – | – | – | Km | 59 µM |
| CNc1nc(C)c(-c2nc(Nc3ccc(N4CCC(N)CC4)cn3)ncc2F)s1 | CDK1 | kinase activity, inhibitor | – | – | – | IC50 | 2.37 µM |
| COc1ccc(Nc2nnc(NCC(=O)Nc3c(F)cccc3F)s2)cc1 | CD28 (Homo sapiens, UniProt P10747) | binding, microscale thermophoresis | – | – | – | Kd | 29.6 ± 12.7 µM |
| CCN1CCC(CCc2cnc(Nc3cc(-c4cc(F)c5nc(C)n(C(C)C)c5c4)ncn3)cn2)CC1 | CDK1 | kinase activity, inhibitor | – | – | – | IC50 | 0.134 µM |
| C/C=C/Cn1c(Cc2cc(OC)c(OC)c(OC)c2)nc2c(N)ncnc21 | Hsp90α and Hsp90β | binding, fluorescence polarization competition | – | – | relative to: IC50 Hsp90β over IC50 Hsp90α | selectivity ratio | 4.8 fold and ~5 fold |
| CNC(=O)[C@@]12C[C@@H]1[C@@H](n1cnc3c(NCCc4ccc(OC)c(OC)c4)nc(C#Cc4ccc(Cl)s4)nc31)[C@H](O)[C@@H]2O | HepG2 | cytotoxicity | – | – | – | IC50 | 36.9 µM |
